Assay results gathered from unrelated publications.
Parts stem from different laboratories: compare values within a part only.

Study 1 — technique: universal PBM; form: double-stranded DNA, one strand shown; sample: in vitro; tested at: 600 nM; direction: higher = stronger binding
Target: Sal-like protein 4, full length isoform A (SALL4, Homo sapiens, UniProt Q9UJQ4, residues 1-1053)
UniProt Q9UJQ4, sequence (whole entry, looked up): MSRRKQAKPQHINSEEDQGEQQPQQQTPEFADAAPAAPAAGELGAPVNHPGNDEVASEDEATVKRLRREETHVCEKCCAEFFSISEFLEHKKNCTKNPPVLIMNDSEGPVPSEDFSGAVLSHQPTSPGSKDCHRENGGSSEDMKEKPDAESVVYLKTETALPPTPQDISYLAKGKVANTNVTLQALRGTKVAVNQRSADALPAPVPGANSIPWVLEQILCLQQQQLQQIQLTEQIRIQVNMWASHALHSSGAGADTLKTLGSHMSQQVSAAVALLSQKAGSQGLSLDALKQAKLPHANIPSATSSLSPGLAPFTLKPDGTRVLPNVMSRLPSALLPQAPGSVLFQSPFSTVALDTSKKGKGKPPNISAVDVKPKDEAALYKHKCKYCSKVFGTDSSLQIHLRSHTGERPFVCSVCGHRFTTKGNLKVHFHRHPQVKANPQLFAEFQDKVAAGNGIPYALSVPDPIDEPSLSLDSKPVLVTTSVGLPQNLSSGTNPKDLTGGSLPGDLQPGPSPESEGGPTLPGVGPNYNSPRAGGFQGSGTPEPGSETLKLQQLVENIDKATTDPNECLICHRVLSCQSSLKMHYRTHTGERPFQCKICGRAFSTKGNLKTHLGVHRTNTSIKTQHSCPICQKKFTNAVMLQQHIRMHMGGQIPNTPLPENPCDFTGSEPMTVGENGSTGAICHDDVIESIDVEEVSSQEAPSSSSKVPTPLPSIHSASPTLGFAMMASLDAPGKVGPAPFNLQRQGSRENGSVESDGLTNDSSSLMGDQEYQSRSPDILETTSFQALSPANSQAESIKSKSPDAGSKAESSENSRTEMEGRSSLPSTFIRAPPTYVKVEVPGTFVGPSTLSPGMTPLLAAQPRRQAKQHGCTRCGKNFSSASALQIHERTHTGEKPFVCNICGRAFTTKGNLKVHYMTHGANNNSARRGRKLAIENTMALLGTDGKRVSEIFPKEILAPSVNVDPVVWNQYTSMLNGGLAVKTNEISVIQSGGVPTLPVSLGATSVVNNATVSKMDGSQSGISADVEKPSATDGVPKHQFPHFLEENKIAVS
Setting: 8-mer, flanks averaged, mean of replicates
With `CGCAGAGA` the E-score was -0.236.
For `GACGGTAC`, the E-score was 0.0264.
With `AACCAACC` the E-score was -0.149.
For `AGGTCATC`, the E-score was -0.136.
With `ACATCCAG` the E-score was 0.0414.
`AAAAGTGC` gave an E-score of 0.0828.
`ATCTTCAC` gave an E-score of 0.145.
For `AGGTCACA`, the E-score was -0.0785.

Study 2 — technique: protein binding microarray; form: double-stranded DNA, one strand shown; sample: in vitro; tested at: not given; reference: not given; direction: higher = stronger binding
Target: Histone acetyltransferase KAT6A, winged helix 2, GST fusion (KAT6A, Homo sapiens, UniProt Q92794, residues 85-181)
Setting: 8-mer, flanks averaged, mean of 2 arrays, mostly near background
Construct (chain): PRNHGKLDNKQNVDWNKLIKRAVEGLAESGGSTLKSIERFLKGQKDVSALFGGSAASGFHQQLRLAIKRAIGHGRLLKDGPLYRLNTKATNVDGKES
`TCTTATAA` has an E-score of -0.0736.
The E-score of `CATTATGA` is reported as -0.203.
With `AGGAAATA` the E-score was 0.0337.
With `GTATGTCA` the E-score was -0.0585.
`ACCCTTAG` gave an E-score of -0.0418.
`CGGATTGA` gave an E-score of 0.0725.
With `ATGGGTCG` the E-score was -0.102.
`CCTTCCTC` gave an E-score of -0.0186.

Study 3 — technique: protein-binding microarray; form: double-stranded DNA, one strand shown; sample: in vitro; tested at: 250 nM; setting: 60-bp whole probe; with: salmon DNA 0.4 mg/ml; reference: random background probes; direction: higher = stronger binding; all sequences stand within: GCCTAGCAC … GTCTTGATTCGCTTGACGCTGCTG
Target: Interferon regulatory factor 7, full length, phosphomimetic (IRF7, Homo sapiens, UniProt Q92985, residues 1-503, S101K/S471D/S472D/S475D/S476D/S477D/S483D/S484D/S487D)
Construct (chain): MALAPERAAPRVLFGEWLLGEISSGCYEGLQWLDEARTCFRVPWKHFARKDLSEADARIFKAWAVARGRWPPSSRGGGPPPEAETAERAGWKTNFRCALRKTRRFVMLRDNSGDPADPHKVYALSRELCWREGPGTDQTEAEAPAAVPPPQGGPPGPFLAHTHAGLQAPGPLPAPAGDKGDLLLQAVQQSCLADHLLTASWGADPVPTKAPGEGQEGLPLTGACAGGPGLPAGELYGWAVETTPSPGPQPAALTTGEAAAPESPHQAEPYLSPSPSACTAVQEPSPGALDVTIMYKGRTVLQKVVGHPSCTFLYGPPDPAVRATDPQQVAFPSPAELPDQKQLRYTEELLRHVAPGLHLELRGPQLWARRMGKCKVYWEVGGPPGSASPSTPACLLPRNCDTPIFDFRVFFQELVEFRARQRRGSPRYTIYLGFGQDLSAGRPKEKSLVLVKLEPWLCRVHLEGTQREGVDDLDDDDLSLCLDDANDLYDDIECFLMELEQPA
The log fluorescence of `CCAGTTCTGGGAAATATTTACGTGCTA` is reported as 0.0374 z-score.
`GAAGATTTCAATTAAAAAAAGTGCTAG` has a log fluorescence of 0.304 z-score.
The log fluorescence of `GTCGAACTGGGGTTTCGAGACGTGCTA` is reported as 2.63 z-score.
`GACGGACTCGGTCTCGGGACGTGCTAG` has a log fluorescence of 0.593 z-score.
The log fluorescence of `TTAGATCTCCTTATCCTTTAGTGCTAG` is reported as 0.306 z-score.
The log fluorescence of `TTAGGACTGGACTATCGGTGAGTGCTA` is reported as -0.386 z-score.
With `TCATTTTTTTTTTTACTACTGTGCTAG` the log fluorescence was 1.1 z-score.
With `TTAGGACTGGGACGGGGTTAGTGCTAG` the log fluorescence was 0.132 z-score.

Single results of other studies
COC(=O)C1=C(C)NC(C)=C(C(=O)OCC(C)C)C1c1ccccc1[N+](=O)[O-] (stereo not shown) has an infection rate of 110% (Plasmodium berghei; inhibitor; Huh-7, GFP-expressing, liver stage; 10 µM, 24 h; reference: untreated control).

Repeated from above (study 3):
The log fluorescence of `TTAGGACTGGACTATCGGTGAGTGCTA` is reported as -0.386 z-score.
With `TCATTTTTTTTTTTACTACTGTGCTAG` the log fluorescence was 1.1 z-score.
